Measurements pooled from the literature.
Protocols differ between the studies behind these lines. Values joined by “and” are separate records of one study, mostly repeats; a detail may differ. ± marks the error that the study gave.
EPHB2: Ephrin type-B receptor 2 (EPHB2, Homo sapiens, UniProt P29323)
Sequence of UniProt P29323 (whole entry, looked up): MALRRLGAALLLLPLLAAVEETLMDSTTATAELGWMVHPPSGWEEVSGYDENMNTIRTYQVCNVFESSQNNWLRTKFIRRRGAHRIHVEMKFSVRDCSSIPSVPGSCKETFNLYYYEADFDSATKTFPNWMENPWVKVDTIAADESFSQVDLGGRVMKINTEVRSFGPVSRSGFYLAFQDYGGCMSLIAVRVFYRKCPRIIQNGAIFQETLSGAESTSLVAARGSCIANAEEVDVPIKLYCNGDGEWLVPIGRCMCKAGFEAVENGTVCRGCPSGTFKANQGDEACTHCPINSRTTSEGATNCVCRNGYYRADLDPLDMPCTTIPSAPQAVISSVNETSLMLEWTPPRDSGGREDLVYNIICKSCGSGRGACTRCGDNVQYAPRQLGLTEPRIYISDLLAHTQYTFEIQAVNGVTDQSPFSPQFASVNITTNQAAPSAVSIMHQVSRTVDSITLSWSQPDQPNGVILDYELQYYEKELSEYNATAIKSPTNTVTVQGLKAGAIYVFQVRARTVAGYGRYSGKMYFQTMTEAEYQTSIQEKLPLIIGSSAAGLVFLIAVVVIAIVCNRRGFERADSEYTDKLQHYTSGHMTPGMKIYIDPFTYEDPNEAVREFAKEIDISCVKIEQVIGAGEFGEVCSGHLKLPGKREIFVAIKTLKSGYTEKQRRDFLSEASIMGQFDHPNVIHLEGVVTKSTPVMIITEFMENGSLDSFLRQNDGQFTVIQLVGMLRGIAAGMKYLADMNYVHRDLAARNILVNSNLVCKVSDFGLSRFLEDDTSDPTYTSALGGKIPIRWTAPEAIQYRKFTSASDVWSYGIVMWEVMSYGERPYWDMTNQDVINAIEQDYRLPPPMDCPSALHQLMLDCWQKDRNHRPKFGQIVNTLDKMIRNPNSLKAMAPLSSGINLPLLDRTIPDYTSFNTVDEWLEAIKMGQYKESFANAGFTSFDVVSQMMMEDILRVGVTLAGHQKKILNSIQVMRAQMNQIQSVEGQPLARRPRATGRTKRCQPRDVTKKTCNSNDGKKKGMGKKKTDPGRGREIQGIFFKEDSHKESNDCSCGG
PSMB7 in 20S proteasome: Proteasome subunit beta type-7, in 20S proteasome (PSMB7, Homo sapiens, UniProt Q99436)
Sequence of UniProt Q99436 (whole entry, looked up): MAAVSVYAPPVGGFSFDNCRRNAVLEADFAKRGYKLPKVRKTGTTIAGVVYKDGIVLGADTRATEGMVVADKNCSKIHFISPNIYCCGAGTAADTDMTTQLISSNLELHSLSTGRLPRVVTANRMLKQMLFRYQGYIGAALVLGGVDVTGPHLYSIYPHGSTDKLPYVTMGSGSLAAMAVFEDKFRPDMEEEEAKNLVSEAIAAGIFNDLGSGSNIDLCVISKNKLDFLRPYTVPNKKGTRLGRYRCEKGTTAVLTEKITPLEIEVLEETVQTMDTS
Sequence of UniProt P08170 (whole entry, looked up): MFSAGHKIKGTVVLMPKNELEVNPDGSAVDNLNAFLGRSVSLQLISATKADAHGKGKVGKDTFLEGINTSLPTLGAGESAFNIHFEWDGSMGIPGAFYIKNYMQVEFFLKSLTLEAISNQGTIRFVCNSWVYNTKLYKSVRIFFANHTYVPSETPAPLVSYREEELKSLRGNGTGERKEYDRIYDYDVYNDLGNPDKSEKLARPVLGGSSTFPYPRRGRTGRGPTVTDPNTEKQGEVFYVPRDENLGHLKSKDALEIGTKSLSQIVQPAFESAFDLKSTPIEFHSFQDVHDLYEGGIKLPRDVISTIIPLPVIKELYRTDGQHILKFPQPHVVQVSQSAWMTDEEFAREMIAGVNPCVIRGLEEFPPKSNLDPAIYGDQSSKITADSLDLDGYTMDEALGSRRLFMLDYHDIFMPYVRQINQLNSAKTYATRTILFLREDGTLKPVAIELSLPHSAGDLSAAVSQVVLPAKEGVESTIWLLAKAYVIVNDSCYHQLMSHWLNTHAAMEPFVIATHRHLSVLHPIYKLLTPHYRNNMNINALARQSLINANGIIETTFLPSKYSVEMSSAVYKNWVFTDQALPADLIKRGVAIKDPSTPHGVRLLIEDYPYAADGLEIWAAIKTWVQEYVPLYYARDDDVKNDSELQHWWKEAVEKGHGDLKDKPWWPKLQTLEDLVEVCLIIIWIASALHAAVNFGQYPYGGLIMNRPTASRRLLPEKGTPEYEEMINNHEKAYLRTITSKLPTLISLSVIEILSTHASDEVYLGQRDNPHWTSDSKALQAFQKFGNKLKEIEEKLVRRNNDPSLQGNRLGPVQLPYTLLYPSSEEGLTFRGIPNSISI
Sequence of UniProt P11309 (whole entry, looked up): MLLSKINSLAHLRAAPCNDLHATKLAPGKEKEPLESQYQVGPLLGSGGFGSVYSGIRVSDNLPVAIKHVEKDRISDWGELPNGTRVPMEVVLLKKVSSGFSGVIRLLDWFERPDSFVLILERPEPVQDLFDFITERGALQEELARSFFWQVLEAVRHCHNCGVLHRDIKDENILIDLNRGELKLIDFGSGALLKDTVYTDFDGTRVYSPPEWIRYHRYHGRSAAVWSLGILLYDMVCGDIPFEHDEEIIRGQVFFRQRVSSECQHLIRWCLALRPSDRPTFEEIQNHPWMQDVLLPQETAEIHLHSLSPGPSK
Sequence of UniProt P51812 (whole entry, unmodified, looked up): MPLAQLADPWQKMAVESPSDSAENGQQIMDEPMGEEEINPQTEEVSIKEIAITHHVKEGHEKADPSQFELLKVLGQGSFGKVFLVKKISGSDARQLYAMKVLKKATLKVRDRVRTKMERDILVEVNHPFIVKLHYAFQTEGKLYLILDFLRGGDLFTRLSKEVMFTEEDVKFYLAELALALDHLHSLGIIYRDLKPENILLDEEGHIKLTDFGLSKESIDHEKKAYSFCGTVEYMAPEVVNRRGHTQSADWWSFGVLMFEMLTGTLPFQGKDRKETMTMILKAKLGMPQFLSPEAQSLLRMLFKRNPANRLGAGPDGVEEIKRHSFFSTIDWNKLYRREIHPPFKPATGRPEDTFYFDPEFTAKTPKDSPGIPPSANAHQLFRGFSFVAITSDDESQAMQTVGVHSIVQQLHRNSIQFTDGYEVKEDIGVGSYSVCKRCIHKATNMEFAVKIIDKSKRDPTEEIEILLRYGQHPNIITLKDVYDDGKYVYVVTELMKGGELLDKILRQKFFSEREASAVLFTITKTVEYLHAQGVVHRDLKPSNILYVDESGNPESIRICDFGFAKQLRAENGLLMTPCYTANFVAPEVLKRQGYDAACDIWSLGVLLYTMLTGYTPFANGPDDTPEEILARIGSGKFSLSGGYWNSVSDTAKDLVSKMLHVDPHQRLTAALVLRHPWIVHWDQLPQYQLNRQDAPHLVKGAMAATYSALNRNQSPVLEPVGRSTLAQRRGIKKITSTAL
Sequence of UniProt C0HJB3 (whole entry, looked up): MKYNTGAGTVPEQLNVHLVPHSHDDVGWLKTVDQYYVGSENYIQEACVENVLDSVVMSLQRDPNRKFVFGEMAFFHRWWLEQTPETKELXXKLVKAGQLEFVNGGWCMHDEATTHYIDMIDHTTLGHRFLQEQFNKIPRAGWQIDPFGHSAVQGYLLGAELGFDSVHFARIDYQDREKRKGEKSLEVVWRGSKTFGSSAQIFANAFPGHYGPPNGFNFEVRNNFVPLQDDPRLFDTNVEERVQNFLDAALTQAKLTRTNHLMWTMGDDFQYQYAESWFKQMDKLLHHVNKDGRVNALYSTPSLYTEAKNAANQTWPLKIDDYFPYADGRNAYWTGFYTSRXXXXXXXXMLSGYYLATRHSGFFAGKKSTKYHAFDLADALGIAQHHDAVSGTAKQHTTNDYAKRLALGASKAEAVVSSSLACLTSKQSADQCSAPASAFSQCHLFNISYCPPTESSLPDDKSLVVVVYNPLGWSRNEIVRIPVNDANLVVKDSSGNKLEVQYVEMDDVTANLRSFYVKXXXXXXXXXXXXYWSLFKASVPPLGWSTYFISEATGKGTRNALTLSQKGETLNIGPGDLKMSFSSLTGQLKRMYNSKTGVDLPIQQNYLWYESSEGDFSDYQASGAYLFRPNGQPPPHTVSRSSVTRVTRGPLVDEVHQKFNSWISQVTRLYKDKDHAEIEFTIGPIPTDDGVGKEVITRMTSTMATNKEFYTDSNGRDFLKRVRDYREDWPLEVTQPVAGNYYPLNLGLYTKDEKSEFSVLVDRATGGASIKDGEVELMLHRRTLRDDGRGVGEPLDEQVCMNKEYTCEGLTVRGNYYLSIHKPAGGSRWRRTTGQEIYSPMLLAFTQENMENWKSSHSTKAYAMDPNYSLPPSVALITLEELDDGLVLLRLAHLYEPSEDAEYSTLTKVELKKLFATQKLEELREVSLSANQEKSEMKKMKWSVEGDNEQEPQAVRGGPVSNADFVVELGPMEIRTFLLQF
Sequence of UniProt P24280 (whole entry, looked up): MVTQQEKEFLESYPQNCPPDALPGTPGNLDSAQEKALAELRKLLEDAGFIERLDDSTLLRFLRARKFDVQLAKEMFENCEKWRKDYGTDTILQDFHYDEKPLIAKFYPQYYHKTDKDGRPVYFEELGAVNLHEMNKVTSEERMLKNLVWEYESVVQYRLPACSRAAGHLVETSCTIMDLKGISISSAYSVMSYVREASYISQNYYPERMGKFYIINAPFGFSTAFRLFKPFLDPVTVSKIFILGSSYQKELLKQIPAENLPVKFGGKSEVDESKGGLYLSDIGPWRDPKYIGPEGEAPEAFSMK
Sequence of UniProt P41279 (whole entry, looked up): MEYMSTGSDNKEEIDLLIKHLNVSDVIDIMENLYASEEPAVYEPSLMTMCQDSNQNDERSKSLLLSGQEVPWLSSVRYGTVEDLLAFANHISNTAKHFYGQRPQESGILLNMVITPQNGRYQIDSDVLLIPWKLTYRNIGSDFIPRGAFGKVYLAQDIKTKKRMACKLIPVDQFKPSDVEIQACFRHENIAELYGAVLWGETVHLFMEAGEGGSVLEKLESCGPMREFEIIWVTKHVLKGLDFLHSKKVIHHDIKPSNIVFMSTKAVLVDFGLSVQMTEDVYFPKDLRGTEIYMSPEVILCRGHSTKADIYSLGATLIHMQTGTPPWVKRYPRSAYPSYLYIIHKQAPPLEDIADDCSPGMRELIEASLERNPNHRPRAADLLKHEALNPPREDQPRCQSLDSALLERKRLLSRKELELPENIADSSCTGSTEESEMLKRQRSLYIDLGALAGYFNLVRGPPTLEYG

The IC50 of CN(C(=O)c1ccn2ncc(-c3ccc(C(N)=O)cc3)c2c1)c1ccc(C#N)cn1 is reported as over 10 µM (MAP3K8 (Homo sapiens, UniProt P41279); enzyme activity, inhibitor).
The IC50 of CN(C)CCNC(=O)c1cc(-c2ccccc2)nc2ccc(Br)cc12 is reported as over 100 µM (TPR (Trypanosoma brucei brucei, UniProt P39051); inhibitor, DTNB-coupled colourimetric; added: substrate at Km).
COC1C=CC=C(C)C(=O)NC2=CC(=O)C(NCCN(C)C)=C(CC(C)CC(OC)C(O)C(C)C=C(C)C1OC(N)=O)C2=O (centres unmarked) has an IC50 of under 1 µM (KDM6B (Homo sapiens, UniProt O15054); enzyme activity, inhibitor, AlphaScreen).
The IC50 of CNC(=O)C1CCN(c2ccccc2NC(=O)c2ccc(-c3cc(O)ccc3C)c(OC)c2)CC1 is reported as 0.276 µM (EPHB2; target engagement in cells, BRET).
CSCC[C@H](NC(=O)[C@@H]1CCCN1C(=O)[C@@H](NC(=O)[C@H](Cc1ccc(O)cc1)NC(=O)[C@@H](N)CC(=O)O)C(C)C)C(=O)N[C@@H](CCC(=O)O)C(=O)N[C@@H](CCC(N)=O)C(=O)N1CCC[C@H]1C(=O)N[C@@H](CCCNC(=N)N)C(=O)O gave an IC50 of over 70 µM (H-2 class I histocompatibility antigen, K-D alpha chain, 29 (H2-K1, Mus musculus, UniProt P01902); binding, competitor, radioligand competition; purified MHC, mutant peptide, added: radiolabeled standard peptide).
CCc1ccc2c(C)nc(NC3=NC(C)(C)C=C(C)N3)nc2c1 gave an IC50 of 22 µM (CD38 (Homo sapiens, UniProt P28907); enzyme activity, inhibitor, fluorescence).
With CCN(CC)C(=O)C(C)Sc1nnc(C2CCN(C(=O)Nc3ccccc3)CC2)n1CC (centres unmarked) the IC50 was 2.65 µM and < 7 µM (Seed linoleate 13S-lipoxygenase-1 (Glycine max, UniProt P08170); enzyme activity, inhibitor).
With CC(=O)NCCN(CC(=O)NCCN(CC(=O)NCCN(CC(=O)NCCC(N)=O)C(=O)[C@@H](N)CCCCN)C(=O)[C@@H](N)Cc1ccccc1)C(=O)[C@@H](N)Cc1ccccc1 the IC50 was 340.5 ± 0.4 µM (HIV-1 TAR RNA; Tat/TAR complex displacement, FRET; room temperature, added: 10 nM Tat/TAR complex).
O=c1c(-c2nnc(C(F)(F)F)s2)c[nH]n1-c1ccccn1 has an IC50 of 1.2 µM (EGLN2 (Homo sapiens, UniProt Q96KS0); enzyme activity, inhibitor, europium VBC binding; 10 µM FeSO4, 2 mM ascorbate, added: 20 µM 2-oxoglutarate).
With Cn1sc(Nc2c(Cl)ccc3ncccc23)c(C#N)c1=O the IC50 was 0.46 µM (SARM1 (Homo sapiens, UniProt Q6SZW1, C649A); enzyme activity, inhibitor).
CNC(=O)C1CCN(c2ccccc2NC(=O)c2ccc(-c3c(C)ccc4[nH]ncc34)c(C)c2)CC1 has an IC50 of 0.028 µM (EPHB2; target engagement in cells, BRET).
FC(F)(F)c1csc(Nc2ccc(Cl)c(Cl)c2)n1 has an IC50 of 5 µM (Kinesin-like protein KIF15, residues 1-700 (Homo sapiens, UniProt Q9NS87); microtubule gliding).
Cc1cc(O)cc2c1C(=O)c1c(cc3oc(=O)cc(C)c3c1O)C2=O gave an IC50 of 52.9 ± 0.65 µg/mL (mushroom tyrosinase; enzyme activity; added: L-DOPA).
For Cn1c(=O)c2c(nc(CN3CCN(C(=O)C4CC4)CC3)n2Cc2ccccc2)n(C)c1=O, the IC50 was over 57 µM (ALDH2 (Homo sapiens, UniProt P05091); enzyme activity, inhibitor).
C=C(NC(=O)C(=C)NC(=O)c1csc(C2=NC3c4csc(n4)C4NC(=O)c5csc(n5)C(C(C)(O)C(C)O)NC(=O)C5CSC(=N5)C(=CC)NC(=O)C(C(C)O)NC(=O)c5csc(n5)C3(CC2)NC(=O)C(CC(N)=O)NC(=O)C(=C)NC(=O)C(C)NC(=O)C(C(C)CC)NC2C=Cc3c(C(C)O)cc(nc3C2O)C(=O)OC4C)n1)C(N)=O (centres unmarked) has an IC50 of 0.38 ± 0.06 µM (PSMB7 in 20S proteasome; trypsin-like activity, inhibitor; purified 20S proteasome; 15 min preincubation, 37 °C, added: Boc-Leu-Arg-Arg-AMC substrate).
O=C(O)CC(O)C(=O)O (centres unmarked) gave an IC50 of 2900 µM (PPCA1 (Flaveria pringlei, UniProt Q01647); enzyme activity, inhibitor).
CC[C@H](C)[C@H](NC(=O)[C@H](CO)NC(=O)[C@@H](Cc1cccnc1)NC(=O)[C@@H](Cc1ccc(Cl)cc1)NC(=O)[C@@H](Cc1ccc2ccccc2c1)NC(C)=O)C(=O)N[C@H](CCCCNC(C)C)C(=O)N[C@@H](CC(C)C)C(=O)N[C@@H](CCCCNC(C)C)C(=O)N1CCC[C@H]1C(=O)N[C@H](C)C(N)=O gave an IC50 of 2.33 ± 0.134 µM (Gonadotropin-releasing hormone receptor (Gallus gallus, UniProt Q9DDC9); inositol phosphate production, antagonist; COS-7 transfected; added: GnRH-II 1 nM).
For O=C(c1ccc(Cl)c([N+](=O)[O-])c1)N1CCN(c2ccc(F)cc2)CC1, the IC50 was 0.283 µM (SEC14 (Saccharomyces cerevisiae, UniProt P24280); enzyme activity, inhibitor, radiometric).
With O=C(CNC1CC1)N1CCc2sccc2C1COc1ccc(Cl)cc1Cl (centres unmarked) the IC50 was 5.44 µM (HHAT (Homo sapiens, UniProt Q5VTY9); enzyme activity, inhibitor).
For OC[C@@H]1NC[C@H](O)[C@@H]1O, the IC50 was 700 µM (Alpha-mannosidase (Canavalia ensiformis, UniProt C0HJB3); enzyme activity, inhibitor, absorbance; pH 5).
For COc1cc(-c2nc3ccc(C(=O)NCCN4CCN(C5CCCCC5)CC4)cc3n2C2CCC2)cc(OC)c1OC, the IC50 was 3.16 µM (ACVR1 (Homo sapiens, UniProt Q04771, R206H); binding, NanoBRET; HEK293).
With C=C(NC(=O)C(=C)NC(=O)c1csc(C2=NC3c4csc(n4)C4NC(=O)c5csc(n5)C(C(C)(O)C(C)O)NC(=O)C5CSC(=N5)C(=CC)NC(=O)C(C(C)O)NC(=O)c5csc(n5)C3(CC2)NC(=O)C(C)NC(=O)C(=C)NC(=O)C(=C)NC(=O)C(C(C)CC)NC2C=Cc3c(C(C)O)cc(nc3C2O)C(=O)OC4C)n1)C(N)=O (centres unmarked) the IC50 was 0.71 ± 0.07 µM (PSMB7 in 20S proteasome; trypsin-like activity, inhibitor; purified human 20S proteasome; 37 °C, 15 min preincubation, added: Boc-Leu-Arg-Arg-AMC).
With CSc1ncc(-c2cc(-c3ccc4c(c3)OCO4)[nH]c(=N)c2C#N)n1Cc1ccccc1 the IC50 was under 0.15 µM (PIM1 (Homo sapiens, UniProt P11309); enzyme activity, inhibitor).
NC(=O)[C@@H]1CCNC(=O)[C@H](CCCNC(=O)c2cnccn2)NC(=O)[C@H](Cc2ccco2)NC(=O)[C@H](CC2CC2)NC(=O)/C=C\C(=O)N1 has an IC50 of over 100 µM (Lck (Mus musculus, UniProt P06240); enzyme activity, inhibitor, absorbance).
Nc1ncc(-c2cnn(C3CCNCC3)c2)cc1-c1nc2ccc(O)c(Oc3cnccn3)c2o1 has an IC50 of 1.1 µM (JAK2 (Homo sapiens, UniProt O60674); enzyme activity, inhibitor, TR-FRET).
The IC50 of C#CCCNC(=O)[C@@H](NC(=O)N[C@H](C(=O)N[C@H]1/C=C/CCNC(=O)/C=C/[C@H](C(C)C)NC1=O)C(C)C)C(C)C is reported as 0.14 µM (PSMB7 (Homo sapiens, UniProt Q99436); trypsin-like activity, inhibitor; human constitutive proteasome, added: Bz-VGR-AMC).
With CC(C)C[C@H](NC(=O)[C@@H]1CCC(=O)N1)C(=O)N[C@@H](Cc1ccc(O)cc1)C(=O)N[C@@H](CCC(=O)O)C(=O)N[C@@H](CC(N)=O)C(=O)N[C@@H](CCCCN)C(=O)N1CCC[C@H]1C(=O)N[C@@H](CCCNC(=N)N)C(=O)O the IC50 was over 2 µM (NTSR1 (Homo sapiens, UniProt P30989); ligand displacement in cells, radioligand).
Cn1cc(C(=O)c2ccccc2F)cc1/C=C(\C#N)C(N)=O has an IC50 of over 100 µM (Ribosomal protein S6 kinase alpha-3, C-terminal kinase domain (RPS6KA3, Homo sapiens, UniProt P51812, T493M); kinase activity, inhibitor; added: 0.1 mM ATP).
Clc1ccccc1NCc1cn(-c2ccccc2)nc1-c1ccc(OCc2ccccc2)cc1 gave an IC50 of 98.6 µM (PTGS1 (Homo sapiens, UniProt P23219); enzyme activity, inhibitor, absorbance).
